Assay results from different studies.
Compare with care: the assays were run in different laboratories. “And” joins repeats or separate records; there may be more than shown.

Cc1ncsc1-c1ccc(C(C)NC(=O)C2CC(O)CN2C(=O)C(NC(=O)CCCCCCCCCCN2CCCC(Nc3ncc(Cl)c(Nc4ccccc4S(=O)(=O)C(C)C)n3)C2)C(C)(C)C)cc1 (stereo not drawn) — log2 fold change (22Rv1; RNA-seq, measured: WDR89 mRNA; concentration not given; relative to: DMSO): -1.21
COc1ccccc1-c1ccncc1C(=O)Nc1nnc(OCc2ccc(Cl)cc2)s1 — colony survival (MDA-MB-231; 1.5 µM, single replicate; relative to: untreated): 85.2% and 101%
CNS(=O)(=O)Nc1nccc(Cc2c(C)c3ccc(Oc4ncccc4F)cc3oc2=O)c1F — IC50 (LK-2; cell viability; 7 days): 0.00278 µM
CN1CCCNC(=O)c2cccc(c2)C(=O)NCCCN(C)CCCNc2cccc3c2C(=O)c2cccc(c2C3=O)NCCC1 — log2 fold change (SAS; RNA-Seq, measured: HEXIM2 mRNA; 1 µM, 6 h; relative to: untreated cells): 1.15
CC(C)c1ccc(N(C)c2ccc3c(c2)OCC[C@H]3CNc2cnccc2C(=O)O)cc1 — IC50 (Malme-3M; cell viability, CellTiter-Glo; 7 days): ≥ 10 µM
CO[C@@H]1[C@@H](OC(N)=O)[C@@H](O)[C@H](Oc2ccc3c(O)c(NC(=O)c4ccc(O)c(CC=C(C)C)c4)c(=O)oc3c2C)OC1(C)C — colony count (HCT-116 parental; 300 µM, replicate 2): 0.1
CCN(C(=O)c1cc(F)ccc1Oc1nncnc1N1CCC2(C1)CN([C@H](CCCN(C)CCOC)C(C)C)C2)C(C)C — GI50 (EFO-21; cell growth or viability; 7 days): > 10 µM
Cn1ncc2cc(-c3cncc(Cl)c3N3CCC4(CCNC4=O)CC3)ccc21 — fold change in expression (LS174T; microarray, measured: SLC6A4; concentration not given, 4 h, gene set SERT; relative to: untreated cells): -1.43
CCN(CC)CC(=O)Nc1cccc(-n2cc(-c3ccc4ccc(-c5cn(-c6cccc(NC(=O)CN(CC)CC)c6)nn5)cc4c3)nn2)c1 — fold regulation (RCC4; PCR angiogenesis array, measured: ANGPT1; 5 x IC50, 6 h, normoxia; relative to: untreated): 1.13

A few entries again:
CO[C@@H]1[C@@H](OC(N)=O)[C@@H](O)[C@H](Oc2ccc3c(O)c(NC(=O)c4ccc(O)c(CC=C(C)C)c4)c(=O)oc3c2C)OC1(C)C — colony count (HCT-116 parental; 300 µM, replicate 2): 0.1
